Assay results collected from several papers.
Numbered parts are unrelated; each lists some results of a single study. Positions count from the first letter of the parent shown.

Block 1 — method: protein-binding microarray; form: double-stranded DNA, one strand shown; sample: in vitro; tested at: 250 nM; notes: 60-bp whole probe; with: salmon DNA 0.4 mg/ml; baseline: random background probes; reading: higher = stronger binding; measurement: log fluorescence; constant ends, left off below: GCCTAGCAC … GTCTTGATTCGCTTGACGCTGCTG
Target: Interferon regulatory factor 5, full length, phosphomimetic (IRF5, Homo sapiens, UniProt Q13568-2, residues 1-514, K96S/S451D/S453D/S456D/S462D)
TTACGTATCGGGTATCGGTTAGTGCTA: 7.66 z-score
TTAGGTTTCCGGACTGGGTTAGTGCTA: 0.288 z-score
TTACGTTTCGACTATCGGTTAGTGCTA: 9.92 z-score
ATAGGTATCGGTCTCGGTTAGTGCTAG: 6.35 z-score
CAATTCCTGAAATCTCTTTCCGTGCTA: 0.82 z-score
GACGGTATCTGGTATCGGGACGTGCTA: 1.69 z-score
TTAGGTTTCGGTTTGGGTTAGTGCTAG: 10.5 z-score
TTTGCTTTCCTTCATGCACTGTGCTAG: 1.68 z-score
GACGGTATCCTTCTCCGGACGTGCTAG: 0.199 z-score
TCACTGCTACCCTCTGAAACTGTGCTA: 0.127 z-score
TTAGGTATCCTTATACTTTAGTGCTAG: 0.271 z-score
GACGGTTTCGACACTGGGCACGTGCTA: 4.7 z-score
TTGTGTGTGTGTTTGTGTGTGTGCTAG: 0.129 z-score

Block 2 — method: RNA Bind-n-Seq; form: RNA; sample: in vitro; tested at: 365 nM; baseline: no-protein control; reading: higher = stronger binding; measurement: RBNS enrichment (R)
Target: RNA binding protein fox-1 homolog 2, RRM domain, GST-SBP tag (RBFOX2, Homo sapiens, UniProt O43251-10, residues 100-194)
Notes: natural RNA segment, single round, ends assumed
Constant ends, left off below: GGGAGUUCUACAGUCCGACGAUC … UGGAAUUCUCGGGUGCCAA
Construct (chain): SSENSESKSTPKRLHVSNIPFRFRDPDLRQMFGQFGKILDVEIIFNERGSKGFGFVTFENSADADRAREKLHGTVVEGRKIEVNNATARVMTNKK
CACUGACCGCAAGGGACACCAAGGACCGACCCUACUCACACCAGAAGCCCUACCAGGCUUCCCAGCAGCGCCACCUUCAGGCAGGAGUCAGAACUGUCCCCUUGGAGAUG: 0.28
UUUUAGGACUUAGCAGAGCUGAGAGCCCUUUGUUGCUCAAUGCUGUGAGCCUUAAGCAUGUGAAUCCCCCCACAUGACAAGUGGGGAGACCCAGGGUAGGCUUUCCUUUG: 2.7
UGGCUAGCAGCUAUCAGUAUUAGCGAGGUGUCUUGCCGAUAUCAGAGUCAGUGUGUCAUUUCAGUUUAACUGGAUGAACUGUCAAAUAAAGAAAUGCAGAAUGAAAACAA: 0.645
CACAGCUGUGGAUGCCAUGAAGAAGCCGUGGACAUUCUUGGUGGGUGAAGCCCUAGACGAUGGAAUCCUACCAAGCUGAACGUCGGCUUCUAUCCAUAUGCUAUCGAGUA: 0.32
GACAAUAGCCAGAUGGUUAGUGGGGCAGCCAGGCAGGGAGGACCCAGGGCUGGGAUUCUCCAACCUUAGGCCAUUCCUGCAGCCCUCACCACCUCCAGCCCCUCCAAGCA: 0.616
CAGAAUGAAGAUGAAUGGCCUGACCAGCUAUCUAGGGUUUGGGGAGAUGCAAAAUUGUAAAAUUCCUUAAUGUUUAAGGGAAAGUUAACUUUAAGAGAUUUUCAGAAAAG: 1.04
UUUUACUUGAGCAAAGAACUAAGGAUUUUUCCAUGGACAUGGGCAGCAAUUCACGCUGUCUCUUCUUAACCCUGAACAAGAGUGUCUAUGGAGCAGCCGGAAGUCUGUUC: 0.207
UUAGCUUUCUGUUAAAUACUUGCAGAAAAAAAAAAUAGCAAGUACAAUAUGACAGUAGUACAACAACCUGUGCCCAAAACACUGACAAGAAAUACAGAGUAAAGCUAAAA: 0.328
UUAAAGAUGACUUAUAAGAACCCUGAAAUUUAUAUAGGUGAGACAAUAGAAAUAAAAAGAUCUUCAGCCAGGCCUUUCUGAAGGAGUUAUUCUGCUAAAAAUGGUCUUAG: 0.964
UGAAGGAGAUGGCCAGGCUCCUGGGAGCACUAGCGGCGGAGCCACUGCACCAGGCUGCUGCUUUGUUGUCUGUCUGCUGCCCGUCCCUCCCUGCAGGCCGCAUCAUGGUG: 0.749
GAGAAAUGUCUUUUCAUGAAUCCUAAGGACAUGCUGUGUCAGCUAAACCUACAAUUGAUUGCUUCUAGAGUUUAAAAAGGGAAAGUUGUGCUUGUAUUUGCAAGUUGAAU: 1.67
GGUCCCUUUUGUGUCUCCCCCGCCAUUCAAGGACUCCUCUCUUUCUUCACCAAGAAGCACAGAAUUCUGCUGGGCCUUUGCUUGUUUAUUUUGUUUCCCGACUCUUCUCU: 0.8

Block 3 — target: CCNA2, cyclin fold, Cln2 fusion (human); method: yeast growth competition, sequencing; sample: yeast; notes: strong parent motif; baseline: not given; reading: higher = stronger binding; measurement: normalised enrichment score
Parent: CDKN1A docking peptide (human); SKACRRLFGPVDS
A3S: 3.89
P10F: 4.33
A3R: 0.893
R6G: 1.76
F8Q: 0.0185
V11C: 5.68
A3M: 3.07
R5C: 2.29
K2G: 5.68
G9C: 5.4
K2S: 5.35
D12S: 5.25
P10T: 5.46
R5M: 1.55

Block 4 — method: RNA Bind-n-Seq; form: RNA; sample: in vitro; tested at: 200 nM; notes: whole 134-nt RNA, ends assumed; with: 150 mM KCl; baseline: input library; reading: higher = stronger binding; measurement: log2 enrichment
Target: Fragile X messenger ribonucleoprotein 1, C-terminal low-complexity region (Fmr1, Mus musculus, UniProt P35922)
Constant ends, left off below: GGGAGUUCUACAGUCCGACGAUC … UGGAAUUCUCGGGUGUCAAGG
CUCAAGUCCUGUGCUACACAUCGUAUGUACCGAAUCGGGAAAGGGUGGGUGGGAAAGUAUUAUGUUACGCCGUUCGGAUCUGCACUUCCA: 1.26
UCAAGUCCUGUGCUACACAUCGUAUGUACCGAAUCGGGAGGGUGGGAAAAAGGGAAAGUAUUAUGUUACGCCGUUCGGAUCUGCACUUCC: 1.04
UGCUGUGCAGCGGCAUCGGCCCACUGUGGUGGAAUGUCUACGGGAAACUGAUGCCUCCCUCAGCCGGUGAGCAGUGAUAGAGGGGACAGG: -2.18
CACAGACAACACGCACCCACACAGACACAGAGGGAAGGGGUUGGGAUGGGGACAGGGUGCACAGCAGGGCUGGGUAGGACCCCAGCCCCU: 1.4
GCAGGAAGUAAAAACAAAUGGAAAUGCUUCGAAAAGUGGCAGGGGUGGGGGUUGCUAAGGAAAGGGUGGGAUGGGAGUGGGUAAAGAGUU: 0.239
UAACGUUAGAGGAGGAUCUGAUGGAUAUGGCAGUGGACGUGGAUUUGGGGAUGGCUAUAAUGGGUAUGGAGGAGGACCUGGAGGUGGCAA: 0.314
UAACUUUAGAGGAGGAUCUGAUGGAUAUGGCAGUGGACGUGGAUUUGGCGAUGGCUAUAAUGGGUAUGGAGGAGGACCUGGAGGUGGCAA: 0.313
CCUGUGCUACACAUCGUAUGUACCGAAUCGGGGAAAAAAGGGGAAAAAAGGGAAAAAAGGAAAGUAUUAUGUUACGCCGUUCGGAUCUGC: -0.365
CCUGUGCUACACAUCGUAUGUACCGAAUCGGAAAAAAAGGAAAAAAAGGGAAAAAAAGGGAAAGUAUUAUGUUACGCCGUUCGGAUCUGC: -0.874

Block 5 — method: RNA Bind-n-Seq; form: RNA; sample: in vitro; tested at: not given; baseline: input RNA pool; reading: higher = stronger binding; measurement: bound/input enrichment
Target: RING finger protein unkempt homolog, zinc fingers 1-6, GST-SBP tag (UNK, Homo sapiens, UniProt Q9C0B0, residues 30-357)
Notes: RNA with constant flanks, human-mouse chimeric sites, ends assumed
Constant ends, left off below: GGGAGUUCUACAGUCCGACGAUC … CAACAGAGGAUUGAGCAUCA
Target sequence (chain): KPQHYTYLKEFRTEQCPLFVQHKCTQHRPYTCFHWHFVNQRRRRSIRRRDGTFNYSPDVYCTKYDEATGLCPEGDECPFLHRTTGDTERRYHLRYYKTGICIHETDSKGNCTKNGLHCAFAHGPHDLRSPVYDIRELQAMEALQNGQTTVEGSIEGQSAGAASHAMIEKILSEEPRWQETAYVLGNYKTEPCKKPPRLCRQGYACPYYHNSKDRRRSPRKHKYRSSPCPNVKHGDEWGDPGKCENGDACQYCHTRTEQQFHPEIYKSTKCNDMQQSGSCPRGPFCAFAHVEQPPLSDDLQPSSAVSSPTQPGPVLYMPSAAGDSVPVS
UUGUGCAAUGAUGCUUGAGAUGGUUUUUGCAAAAGCAGACAUCGCUGCAAGGUAAUCACAAUAGAUAAAAGUGGUAUUUUAAACCUUUGAAAUAAAUGGAUGUAACUGUACCUUGGUACA: 0.896 ratio
UAAGUUAUUUUGUACAGCUUUGUAAAUUCUUAACAUUAAUUUGUAAACAUGUUUAUUUUGUUUGGGUAAUUUGGUUCAUUAAGUACAUAGCUAAGGUACAUCUUUCAUUUUUCAGUAAUU: 0.514 ratio
AGGAGGAGAUUAAAGGGUGAGAGUGGGGUGGAAGACUGUGUCAUGGCUCUGGAGACACUGUUCAGUGUCCUGCUUUCUCUGUGCAGACUGAUGGCCCCCUACACACCCUUUCUGACUGAG: 0.0664 ratio
CGGAGCCCUCCUCUCCCACAGGCCCAAGAUGUGACCCACCAGUGCCUUUUGUCUUCCUGUCAGCUCUGUCAAUCACGCCUGUCCUCUCACGCCCACACCAAGUGCCCCCACCCCUAAGGG: 0.486 ratio
ACAGUUAUACACUGUUGUUUCAUUUUCAUAUAUUCUUGUAGUGUCUGCUUGCCUGUGACUUCUGGUAAAAUAAGACUAGCCUUUGAAAAUAUUUUAGCAUGGUAUUUAACAUUUUCUAAA: 7.76 ratio
UGACAAGGGCACUGCAGAGCCAUGCCUUUCCUUGACAUCCAGAAAAGGCUGGGCAUCAACAUAGAUCGGCACUUUAUGUUCCUAAGCGCAGAACAGCCCUAUAAGAACGCCGCUCGGUGC: 0.0741 ratio

Block 6 — method: protein binding microarray; form: double-stranded DNA, one strand shown; sample: in vitro; tested at: not given; baseline: not given; reading: higher = stronger binding; measurement: E-score
Target: Histone acetyltransferase KAT6A, winged helix 1, GST fusion (KAT6A, Homo sapiens, UniProt Q92794, residues 1-85)
Notes: 8-mer, flanks averaged, mean of 2 arrays, mostly near background
Construct (chain): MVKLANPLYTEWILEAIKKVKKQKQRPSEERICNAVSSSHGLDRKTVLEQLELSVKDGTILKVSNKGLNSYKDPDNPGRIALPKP
ATGTTTCC: 0.141
CGCGGTGA: 0.325
GATCCTCC: -0.0239
CCAGCTAA: -0.141
CTACCATC: -0.24
ACAAGCGC: 0.343
GTGTACCA: -0.024
ATCTCTCG: -0.0594
CTTAAAGA: -0.165
AAAACCTA: 0.0367
GGCGCGAC: 0.266
AACGCCCA: -0.102
CGAAGCGC: 0.335
AAATAGAG: -0.218
GGCAAGCC: 0.156
GCAAGGAC: 0.117
AGCCCTGG: -0.169

A few entries again (block 5):
UAAGUUAUUUUGUACAGCUUUGUAAAUUCUUAACAUUAAUUUGUAAACAUGUUUAUUUUGUUUGGGUAAUUUGGUUCAUUAAGUACAUAGCUAAGGUACAUCUUUCAUUUUUCAGUAAUU: 0.514 ratio
CGGAGCCCUCCUCUCCCACAGGCCCAAGAUGUGACCCACCAGUGCCUUUUGUCUUCCUGUCAGCUCUGUCAAUCACGCCUGUCCUCUCACGCCCACACCAAGUGCCCCCACCCCUAAGGG: 0.486 ratio
AGGAGGAGAUUAAAGGGUGAGAGUGGGGUGGAAGACUGUGUCAUGGCUCUGGAGACACUGUUCAGUGUCCUGCUUUCUCUGUGCAGACUGAUGGCCCCCUACACACCCUUUCUGACUGAG: 0.0664 ratio
UUGUGCAAUGAUGCUUGAGAUGGUUUUUGCAAAAGCAGACAUCGCUGCAAGGUAAUCACAAUAGAUAAAAGUGGUAUUUUAAACCUUUGAAAUAAAUGGAUGUAACUGUACCUUGGUACA: 0.896 ratio
ACAGUUAUACACUGUUGUUUCAUUUUCAUAUAUUCUUGUAGUGUCUGCUUGCCUGUGACUUCUGGUAAAAUAAGACUAGCCUUUGAAAAUAUUUUAGCAUGGUAUUUAACAUUUUCUAAA: 7.76 ratio
UGACAAGGGCACUGCAGAGCCAUGCCUUUCCUUGACAUCCAGAAAAGGCUGGGCAUCAACAUAGAUCGGCACUUUAUGUUCCUAAGCGCAGAACAGCCCUAUAAGAACGCCGCUCGGUGC: 0.0741 ratio
